Published values gathered from unrelated publications.
Protocols differ between the studies behind these lines. ± marks the error that the study gave.
Cell line: HCT-116

`CC(C)=CC1OC(C)(C)C2C=C3C(=O)C(Cl)=CC(O)C3C3C(O)C4OC4C(=O)C132` (stereo not drawn) gave an IC50 of 1.31 µM (cell growth or viability, MTS).
`Cc1cc(C)[nH]n1` has an IC50 of greater than 800 µM (cell growth, MTT; 24 h).
With `O=C1/C(=N\c2ccc(Cl)cc2Br)c2ccccc2N1C(=O)c1ccccc1` the IC50 was greater than 100 µM (cell growth or viability, MTT; 48 h).
`CCOC(=O)/C=C1\S/C(=N\N=C\c2cccc3cc4ccccc4nc23)N(c2ccc([N+](=O)[O-])cc2)C1=O` gave an IC50 of greater than 50 µM (cell growth or viability, MTT; 48 h).
`CN1CCC(N[C@H]2CCc3[nH]c4c(C(N)=O)ccc(-c5ccccc5Cl)c4c3C2)CC1` has an IC50 of 0.761 µM (cell growth or viability).
`O=C1/C(=N\c2ccc(Cl)cc2Br)c2ccccc2N1C(=O)c1ccccc1Br` gave an IC50 of 1.3 µM (cell growth or viability, MTT; 48 h).
For `COc1cccc(N2C(=O)CS/C2=N\N=C\c2cccc3cc4ccccc4nc23)c1`, the IC50 was 33.3 µM (cell growth or viability, MTT; 48 h).
`O=C(NCc1cc(F)cc(F)c1)[C@@]1(O)CCN(c2ccc3[nH]ccc3c2)C1=O` has an IC50 of greater than 30 µM (cell growth or viability).
With `CN(C)c1ccc(CCC(=O)N2C(=O)C3(NC(c4ccc(F)cc4)C4(C(=O)Nc5ccccc54)N3Cc3ccc(F)cc3)c3ccccc32)cc1` (stereo not drawn) the IC50 was 30.7 µM (cell growth or viability, MTT; 48 h).
`CCNC(=S)NN=Cc1c2ccccc2cc2ccccc12.Cc1ccc(C(C)C)cc1.[Cl-].[Cl-].[Ru+2]` gave an IC50 of 290 ± 10 µM (cytotoxicity, MTS; 24 h).
`[BH3-][P+]1(c2ccccc2)CCCCC1` has an IC50 of 49.1 ± 0.12 µM (cell viability, MTT; 72 h).
`CCOC(=O)/C=C1\S/C(=N\N=C\c2cccc3cc4ccccc4nc23)N(c2ccccc2)C1=O` gave an IC50 of 28.4 µM (cell growth or viability, MTT; 48 h).
`[BH3-][P+]1(c2ccccc2)CCC(=O)CC1` gave an IC50 of greater than 100 µM (cell growth or viability, MTT; 72 h).
`CCC(=[NH+][Pt-2]1([Cl])([O]C(=O)CC(C)C)([O]C(=O)CC(C)C)[NH]CCC[NH]1)N(C)CCNc1c2ccccc2[nH+]c2ccccc12.O=[N+]([O-])O.O=[N+]([O-])O` has an IC50 of 4.01 µM (cell growth or viability, MTS; 72 h).
With `COc1ccccc1/C=C1\C(=O)N(C)c2ccc(N(C)c3nc(C)nc4ccccc34)cc21` the IC50 was 0.53 µM (cell growth or viability, MTT).
With `O=C1C(Nc2ccc(Cl)cc2)c2ccccc2N1Cc1ccccc1` (stereo not drawn) the IC50 was 26.6 µM (cell growth or viability, MTT; 48 h).
For `COc1ccccc1/C=C1\C(=O)Nc2ccc(Nc3nc(C)nc4ccccc34)cc21`, the IC50 was 2.77 µM (cell growth or viability, MTT).
With `O=C1/C(=N\c2ccc(Cl)cc2)c2ccccc2N1Cc1ccccc1` the IC50 was 2.16 µM (cell growth or viability, MTT; 48 h).
With `COc1ccc(N2C(=O)CS/C2=N\N=C\c2cccc3cc4ccccc4nc23)cc1` the IC50 was 39.8 µM (cell growth or viability, MTT; 48 h).
The IC50 of `CCC(=[NH+][Pt-2]1([OH])([OH])([Cl])[NH]CCC[NH]1)N(C)CCNc1c2ccccc2[nH+]c2ccccc12.O=[N+]([O-])O.O=[N+]([O-])O` is reported as 6.44 µM (cell growth or viability, MTS; 72 h).
For `CCOC(=O)/C=C1\S/C(=N\N=C\c2cccc3cc4ccccc4nc23)N(c2cccc(OC)c2)C1=O`, the IC50 was greater than 50 µM (cell growth or viability, MTT; 48 h).
For `Cc1ccc([N+](=O)[O-])cc1S(=O)(=O)N(C)/N=C/c1cnc2ccc(Br)cn12`, the IC50 was 0.001 µM (cell viability, MTS).
With `CCCCCCCC/C=C/CCCCCCCC(=O)[O][Pt-2]1([OH])([Cl])([NH+]=C(CC)N(C)CCNc2c3ccccc3[nH+]c3ccccc23)[NH]CCC[NH]1.O=[N+]([O-])O.O=[N+]([O-])O` the IC50 was 0.14 µM (cell growth or viability, MTS; 72 h).
The IC50 of `NC(=O)c1ccc(-c2ccccc2Cl)c2c3c([nH]c12)CC[C@H](N)C3` is reported as 0.00644 µM (cell growth or viability).
`[BH3-][P@+]1(c2ccccc2)CC[C@H](O)CC1` has an IC50 of greater than 100 µM (cell growth or viability, MTT; 72 h).
`Cc1nc(N(C)c2ccc3c(c2)/C(=C/c2cn(C)c4ccccc24)C(=O)N3C)c2ccccc2n1` has an IC50 of 4.88 µM (cell growth or viability, MTT).
With `O=C(CCc1ccccc1)N1C(=O)C2(NC(c3ccc(F)cc3)C3(C(=O)Nc4ccccc43)N2Cc2ccc(F)cc2)c2ccccc21` (stereo not drawn) the IC50 was 38.8 µM (cell growth or viability, MTT; 48 h).
The IC50 of `CCCN1C(=O)/C(=C/C(=O)OCC)S/C1=N\N=C\c1cccc2cc3ccccc3nc12` is reported as 43.1 µM (cell growth or viability, MTT; 48 h).
`Cc1nc(Nc2ccc3c(c2)/C(=C/c2ccccc2Cl)C(=O)N3C)c2ccccc2n1` gave an IC50 of 8.82 µM (cell growth or viability, MTT).
For `O=C1CS/C(=N\N=C\c2cccc3cc4ccccc4nc23)N1c1ccccc1`, the IC50 was 39.2 µM (cell growth or viability, MTT; 48 h).
The IC50 of `O=C1/C(=N\c2ccc(Cl)cc2Br)c2ccccc2N1Cc1ccccc1` (mixture of isomers) is reported as 16.7 µM (cell growth or viability, MTT; 48 h).
`COc1cc(-n2cc3cc(F)cc(C(N)=O)c3n2)cc(Cl)c1C1CC(O)(CCO)Cc2ccccc21` (stereo not drawn) has an IC50 of 0.07 µM (cell growth or viability, MTT; 72 h).
With `C=CC(=O)N1CCc2ccc(-n3c(=O)ccc4cnc5ccc(-c6cnn(C)c6)cc5c43)cc21` the IC50 was 3.24 µM (cell growth or viability).
`COc1ccc(CN2C3(NC(c4ccc(OC)cc4)C24C(=O)Nc2ccccc24)C(=O)Nc2ccccc23)cc1` (stereo not drawn) gave an IC50 of 63.1 µM (cell growth or viability, MTT; 48 h).
`Cc1nc(Nc2ccc3c(c2)/C(=C/c2c[nH]c4ccccc24)C(=O)N3)c2ccccc2n1` has an IC50 of 2.34 µM (cell growth or viability, MTT).
`Oc1c(Cl)cc(Cl)cc1/C=N/Nc1ncnc2sc3c(c12)CCCC3` gave an IC50 of 0.577 µM (cell viability; 48 h).
`O=[P@]1(c2ccccc2)CC[C@@H](O)CC1` has an IC50 of greater than 100 µM (cell growth or viability, MTT; 72 h).
For `CSc1sc2c3ccccc3c3ccccc3[n+]2c1C(=O)c1ccccc1`, the IC50 was 27.4 µM (cell growth or viability, MTT; 72 h).
`CCCN1C(=O)CS/C1=N\N=C\c1cccc2cc3ccccc3nc12` gave an IC50 of 38.1 µM (cell growth or viability, MTT; 48 h).
With `CCOC(=O)c1cc(C)[nH]n1` the IC50 was 110 µM (cell growth or viability, MTT; 24 h).
For `CC(=O)OC[C@H]1O[C@@H](Oc2ccc(C#[C][Pt+])cc2)[C@H](OC(C)=O)[C@@H](OC(C)=O)[C@@H]1OC(C)=O.O=S(=O)([O-])C(F)(F)F.c1ccc(-c2cccc(-c3ccccn3)n2)nc1`, the IC50 was 90.7 µM (cell growth or viability; 48 h).
`CC(C)c1ccc(N(C)c2ccc3c(c2)OCC[C@H]3CNc2cnccc2C(=O)O)cc1` gave an IC50 of 0.0204 µM (cell growth or viability, ATP luminescence; 7 days).

Excerpt of the above:
`Cc1nc(Nc2ccc3c(c2)/C(=C/c2c[nH]c4ccccc24)C(=O)N3)c2ccccc2n1` has an IC50 of 2.34 µM (cell growth or viability, MTT).
`[BH3-][P@+]1(c2ccccc2)CC[C@H](O)CC1` has an IC50 of greater than 100 µM (cell growth or viability, MTT; 72 h).
For `COc1ccccc1/C=C1\C(=O)Nc2ccc(Nc3nc(C)nc4ccccc34)cc21`, the IC50 was 2.77 µM (cell growth or viability, MTT).
With `O=C1C(Nc2ccc(Cl)cc2)c2ccccc2N1Cc1ccccc1` (stereo not drawn) the IC50 was 26.6 µM (cell growth or viability, MTT; 48 h).
